Assay results gathered from unrelated publications.
Every numbered part comes from another study and shows a few of its results, in no order. Substitutions count along the parent as printed.
Chain of UniProt P28335 (whole entry, looked up): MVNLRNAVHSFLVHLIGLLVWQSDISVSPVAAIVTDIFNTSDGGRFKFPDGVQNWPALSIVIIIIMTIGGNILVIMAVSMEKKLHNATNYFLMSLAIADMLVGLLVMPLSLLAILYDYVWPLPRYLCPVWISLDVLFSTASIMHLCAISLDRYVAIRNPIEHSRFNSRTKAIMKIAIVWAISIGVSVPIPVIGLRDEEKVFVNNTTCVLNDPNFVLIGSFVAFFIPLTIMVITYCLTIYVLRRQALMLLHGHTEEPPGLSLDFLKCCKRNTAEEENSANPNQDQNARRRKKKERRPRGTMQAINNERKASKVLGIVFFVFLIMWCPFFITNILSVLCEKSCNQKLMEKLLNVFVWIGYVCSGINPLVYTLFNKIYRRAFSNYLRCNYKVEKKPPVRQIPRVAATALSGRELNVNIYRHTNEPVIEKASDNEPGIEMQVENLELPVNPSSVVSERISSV

Series 1 — effect on: binding; method: phage display NGS; molecule type: peptide; relative to: input library
Target: UDP-N-acetylglucosamine--peptide N-acetylglucosaminyltransferase 110 kDa subunit (OGT, Homo sapiens, UniProt O15294)
Chain of UniProt O15294 (whole entry, looked up): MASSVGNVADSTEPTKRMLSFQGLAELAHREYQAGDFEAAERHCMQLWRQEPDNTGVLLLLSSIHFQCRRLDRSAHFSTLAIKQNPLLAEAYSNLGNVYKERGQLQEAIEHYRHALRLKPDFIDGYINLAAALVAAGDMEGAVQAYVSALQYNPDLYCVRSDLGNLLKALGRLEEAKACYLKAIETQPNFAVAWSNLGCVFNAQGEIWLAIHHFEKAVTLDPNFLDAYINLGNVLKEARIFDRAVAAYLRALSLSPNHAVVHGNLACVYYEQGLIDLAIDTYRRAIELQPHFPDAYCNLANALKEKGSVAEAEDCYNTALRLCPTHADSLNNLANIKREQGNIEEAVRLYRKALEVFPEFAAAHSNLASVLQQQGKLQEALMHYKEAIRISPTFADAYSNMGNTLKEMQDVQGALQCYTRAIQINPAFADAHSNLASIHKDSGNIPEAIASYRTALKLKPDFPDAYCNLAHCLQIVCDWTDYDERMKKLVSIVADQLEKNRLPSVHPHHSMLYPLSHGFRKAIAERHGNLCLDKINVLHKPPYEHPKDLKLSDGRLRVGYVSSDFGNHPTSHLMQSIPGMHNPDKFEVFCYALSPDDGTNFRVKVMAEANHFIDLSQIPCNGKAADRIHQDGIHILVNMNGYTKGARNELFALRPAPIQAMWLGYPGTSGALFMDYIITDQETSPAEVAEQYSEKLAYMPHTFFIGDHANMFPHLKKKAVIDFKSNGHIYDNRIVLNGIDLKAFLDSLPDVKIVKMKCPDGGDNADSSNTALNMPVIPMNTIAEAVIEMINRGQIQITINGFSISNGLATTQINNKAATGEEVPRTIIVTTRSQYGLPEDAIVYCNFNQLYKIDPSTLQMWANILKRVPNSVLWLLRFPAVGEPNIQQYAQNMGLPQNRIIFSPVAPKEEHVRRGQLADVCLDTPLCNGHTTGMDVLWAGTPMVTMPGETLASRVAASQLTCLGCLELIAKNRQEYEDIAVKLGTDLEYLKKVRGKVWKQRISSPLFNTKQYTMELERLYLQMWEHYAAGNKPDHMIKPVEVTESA
Sequence	minimum log2 enrichment ratio
HQHQQPQQHVKWHKF	1.9
HVQDLAVYHSHHWH	1.85
HVTSPMQLTNWHFHA	1.36
HGIMQEDHGGTHHHY	1.62
QATSPFAPIYQMIRD	2.59
VRFPPQYQMVYKTTV	4.87
GLPFQPKYAIEYVMQ	4.7
HVEHVMHRSQAHDTH	2.09

Series 2 — target: CCNE2, cyclin fold, Cln2 fusion (human); method: yeast growth competition, sequencing; sample: yeast; setting: strong parent motif; relative to: not given; reading: higher = stronger binding
Starting sequence: viral docking peptide; KGVKRKLFAEDSS; partner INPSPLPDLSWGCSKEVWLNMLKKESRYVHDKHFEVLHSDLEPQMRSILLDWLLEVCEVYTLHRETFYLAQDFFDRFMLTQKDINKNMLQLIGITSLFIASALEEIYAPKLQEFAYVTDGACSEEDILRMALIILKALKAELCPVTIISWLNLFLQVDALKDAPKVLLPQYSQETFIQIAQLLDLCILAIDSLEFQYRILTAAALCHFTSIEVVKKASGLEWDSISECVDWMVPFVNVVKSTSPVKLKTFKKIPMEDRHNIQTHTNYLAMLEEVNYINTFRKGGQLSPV
Change	normalised enrichment score
KGVKRKLFADDSS [E10D]	7.27
KNVKRKLFAEDSS [G2N]	6.86
KGGKRKLFAEDSS [V3G]	1.2
KGVKRKLAAEDSS [F8A]	0.625
KGVKRPLFAEDSS [K6P]	0.594
KGVGRKLFAEDSS [K4G]	0.69
KGSKRKLFAEDSS [V3S]	1.14
KGVKRKPFAEDSS [L7P]	0.239

Series 3 — target: vanadate, free oxyanion; method: microfluidic competitive inhibition; sample: in vitro, cell-free expressed; concentration: not given; reading: lower = stronger binding
Setting: derived from inhibition constants, unchanged parent 676 nM
Starting sequence: PafA, mature enzyme, eGFP fusion (Elizabethkingia meningoseptica, UniProt Q9KJX5); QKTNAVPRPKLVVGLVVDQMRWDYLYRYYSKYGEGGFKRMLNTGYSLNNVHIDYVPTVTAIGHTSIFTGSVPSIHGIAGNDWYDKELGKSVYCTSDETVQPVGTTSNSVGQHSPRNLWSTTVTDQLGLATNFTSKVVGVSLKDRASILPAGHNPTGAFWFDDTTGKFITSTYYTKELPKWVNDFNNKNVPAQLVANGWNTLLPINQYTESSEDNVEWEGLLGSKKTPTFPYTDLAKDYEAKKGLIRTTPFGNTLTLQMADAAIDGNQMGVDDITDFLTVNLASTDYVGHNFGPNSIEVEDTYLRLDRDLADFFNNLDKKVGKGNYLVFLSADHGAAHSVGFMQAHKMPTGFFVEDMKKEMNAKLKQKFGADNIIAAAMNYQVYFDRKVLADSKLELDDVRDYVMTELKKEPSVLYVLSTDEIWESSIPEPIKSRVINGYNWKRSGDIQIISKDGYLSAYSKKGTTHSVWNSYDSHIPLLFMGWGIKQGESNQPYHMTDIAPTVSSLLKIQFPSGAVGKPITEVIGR
Change	oxyanion analog dissociation constant
W441V	810 nM
L141V	1.21 µM
I273V	846 nM
S426G	746 nM
N440V	775 nM
T174V	626 nM
A78G	612 nM

Single results of other studies
Structure (SMILES)	target	assay	conditions	endpoint	value
Cc1c(C(=O)O)cc(-c2ccc(C3CCNCC3)cc2)c2ccc(-c3ccc(C(F)(F)F)cc3)cc12	5-hydroxytryptamine receptor 2C (HTR2C, Homo sapiens, UniProt P28335)	ligand displacement	10 µM	inhibition	-4.53%

Some of these lines once more (series 2):
Change	normalised enrichment score
KGVKRPLFAEDSS [K6P]	0.594
KGVKRKLFADDSS [E10D]	7.27
KGGKRKLFAEDSS [V3G]	1.2
